Measurements gathered from unrelated publications.
Parts stem from different laboratories: compare values within a part only.

Block 1
Target: RNA binding protein fox-1 homolog 2, RRM domain, GST-SBP tag (RBFOX2, Homo sapiens, UniProt O43251-10, residues 100-194)
Technique: RNA Bind-n-Seq
Form: RNA
Medium: in vitro
Concentration: 365 nM
Setting: natural RNA segment, single round, ends assumed
Baseline: no-protein control
Reading: higher = stronger binding
Shared flanks, not repeated: GGGAGUUCUACAGUCCGACGAUC … UGGAAUUCUCGGGUGCCAA
Residues (chain): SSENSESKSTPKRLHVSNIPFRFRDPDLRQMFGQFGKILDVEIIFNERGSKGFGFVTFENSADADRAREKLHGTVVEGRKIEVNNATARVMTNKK
`GUCCCUGUGUUUGAGCCUCCAGGGAGAAGGGUUUGGGCUGCAUUCUUCUUAUCCCCAUGCACAGAAACGCUCAGGGUCCCCACGUGCCUGUUGUCCUCCCCUCUAGUCCU`: “RBNS enrichment (R)” 1.05.
`GUUCGUACUUGGUGACAAAUUGAGACUGCUGCUGGAUUCAGAUUGACAAGAUUUUCUUGGAUUUUUUUUUUAUACGAAAAUCAAAAUUUCAAUCAGUCUCGUGCUCUGUC` — result for “RBNS enrichment (R)”: 0.557.
Under “RBNS enrichment (R)”, `UUGGCCCUGCAGGCCAGCUGUUUUAAUAAAGUGGGCACAUUCCCUCAUUUGGUGCCUUUUGUUAGGACUCUGUUGUCAUUCAUUUCAUUAGGUGACUUGUGGGCACUGUC` is recorded as 0.737.
Under “RBNS enrichment (R)”, `UCUGACCUUCUCAUCAAGAGAGCUGGGGUGCUUUGAAGAUAAUCCCUACCCCUCUCCCCCAAAUGCAGCUGAAGCAUUUUACAGUGGUUUGCCAUUAGGGUAUUCAUUCA` is recorded as 0.36.
Under “RBNS enrichment (R)”, `UCCAGCCCAAGAGGGACUCCUGGCUGCCCACAUGGCCUAAGAUGUGGGUCCUGGAUCCUUCCCCCCUUCUCACCAUAACCCCCUCUCAGUGUUUCCCCAACUUCUCCCUU` is recorded as 1.15.
`ACACCACCGGUUACUGGCUCCUGGAUGAGGGGGCCAGAGAGGAGUGAAUAACUUCCCAGACACUUAUCUCCAGGGCAGGGUGCCUUCCAGUAGCCAAGGGAAGCCUCCAG`: “RBNS enrichment (R)” 0.222.
`AAAGAAAUUCUGUUAAUGUUAAUUAAAGUAAAAUUAUUCCCUGAAUUGUUUGAUAUUGUCACCUAGCAGAUAUGUAUUACUUUUCUGCAAUGUUAUUAUUGGCUUGCACU` — result for “RBNS enrichment (R)”: 0.814.
`CCAUUCCCUAGCCAGCUCCACCCUUGAUGAAACUGUGGCUAAUGUUCCUUCACUAGGACAGGCACCAUGAGUGUGUUUCUAAGUUCCAGAGUCUGUGGGGAGGAUGGUGG` — result for “RBNS enrichment (R)”: 0.473.
Under “RBNS enrichment (R)”, `UGUUUCUAAAACACAGAACUUACAAGAGCCACAGGAGCCAAUUAUAGCACCUGACAGAAUACUUCUCCUCUUCCUCACCUUCGGGUGCCUCUAGACACUUGACUUACGAU` is recorded as 0.272.
Under “RBNS enrichment (R)”, `GUGUGUUGGUGUGCUUCUGUGUGGCUGUCCCUGUUGCUAGCAGAUCACAGUGAUUUGGUCCCAUUGGAGCCUUUGGCCCCAGGGGCACUCACUUUUUCUCAUCAGAGUCU` is recorded as 0.357.
`CCUGCUGGGGCUCCUUCCUGGCACUGAGGAGGGGCGCUCCCAAUGCUGUGAGGCAGCGGGGAGGGACCGUGCACCCGUGGCUAUCAGAGCCCCUCCGCUGUCCCACCCUG`: “RBNS enrichment (R)” 0.316.
`CUUGCAGGAGAAGCAAUGGAGUCAGUGUGGUGUGGGGAGACCUACUUUUUAACCUGGGCUUAGCCACCUGCUCUGUGAUCCAGGGCUUACCUUCUUUGGGCCUCGGCCUC`: “RBNS enrichment (R)” 0.229.

Block 2
Target: TATA-box-binding protein 1 (TBP1, Arabidopsis thaliana, UniProt P28147, residues 1-200, full length assumed)
Technique: protein-binding microarray
Form: double-stranded DNA, one strand shown
Medium: in vitro
Concentration: not given
Setting: k-mer, scored over probes, only values ≥0.25
Reading: higher = stronger binding
Construct (chain): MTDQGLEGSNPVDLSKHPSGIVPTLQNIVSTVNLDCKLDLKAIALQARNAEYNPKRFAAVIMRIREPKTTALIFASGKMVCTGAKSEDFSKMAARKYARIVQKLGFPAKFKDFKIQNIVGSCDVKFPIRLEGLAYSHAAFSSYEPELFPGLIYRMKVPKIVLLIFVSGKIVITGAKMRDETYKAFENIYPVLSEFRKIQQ
For `ATATGGA`, the E-score was 0.33.
The E-score of `AATTAAT` is reported as 0.381.
`TACTATA` gave an E-score of 0.378.
`CATTATA` gave an E-score of 0.415.
With `ATAATAA` the E-score was 0.42.
`CATTAAA` has an E-score of 0.344.
With `CTCTTTA` the E-score was 0.305.
With `AGTAAAT` the E-score was 0.291.
With `ACCTATA` the E-score was 0.309.
With `CTTAAAC` the E-score was 0.253.

Block 3
Target: Interferon regulatory factor 7, full length, phosphomimetic (IRF7, Homo sapiens, UniProt Q92985, residues 1-503, S471D/S472D/S475D/S476D/S477D/S483D/S484D/S487D)
UniProt Q92985, sequence (whole entry, unmodified, looked up): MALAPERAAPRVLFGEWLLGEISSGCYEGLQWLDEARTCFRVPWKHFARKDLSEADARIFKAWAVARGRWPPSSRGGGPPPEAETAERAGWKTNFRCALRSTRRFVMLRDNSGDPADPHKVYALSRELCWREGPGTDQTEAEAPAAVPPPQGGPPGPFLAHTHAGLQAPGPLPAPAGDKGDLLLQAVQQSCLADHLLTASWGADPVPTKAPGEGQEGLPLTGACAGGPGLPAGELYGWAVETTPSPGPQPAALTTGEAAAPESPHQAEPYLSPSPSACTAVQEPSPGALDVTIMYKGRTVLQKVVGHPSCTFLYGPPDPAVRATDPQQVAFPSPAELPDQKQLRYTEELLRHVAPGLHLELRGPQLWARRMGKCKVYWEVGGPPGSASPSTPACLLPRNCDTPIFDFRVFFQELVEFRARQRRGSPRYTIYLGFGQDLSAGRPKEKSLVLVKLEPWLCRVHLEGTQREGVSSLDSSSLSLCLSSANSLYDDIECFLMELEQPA
Technique: protein-binding microarray
Form: double-stranded DNA, one strand shown
Medium: in vitro
Concentration: 2200 nM top
Setting: 60-bp whole probe
Added: salmon DNA 0.4 mg/ml
Baseline: random background probes
Reading: higher = stronger binding
Shared flanks, not repeated: GCCTAGCAC … GTCTTGATTCGCTTGACGCTGCTG
For `TTCTGAGCCTGGGTGGATGGGTGCTAG`, “fitted relative affinity” read -0.753 z-score.
`TCACTTTCCACTTTCTTACTGTGCTAG` — result for “fitted relative affinity”: 8.73 z-score.
For `GATGTTTTAGGTCCCTTTTCGTGCTAG`, “fitted relative affinity” read 2.22 z-score.
`TTCGATTTCGGGTTTCGATTAGTGCTA`: “fitted relative affinity” 7.36 z-score.
Under “fitted relative affinity”, `TTAGATTTCGGTACTGGATTAGTGCTA` is recorded as 2.05 z-score.
Under “fitted relative affinity”, `TTAGGTCTCCTTATCCTTTTGTGCTAG` is recorded as 1.26 z-score.
`TTAGGACTGCTTCTCCTGTAGTGCTAG` — result for “fitted relative affinity”: 0.527 z-score.
Under “fitted relative affinity”, `TTAGATTTCGGGATTCGATTAGTGCTA` is recorded as 2.38 z-score.
`GACGGTTTCGTCACTGGGGACGTGCTA` — result for “fitted relative affinity”: 2.01 z-score.
Under “fitted relative affinity”, `TTAGACATCAGTATCGATTAGTGCTAG` is recorded as 0.142 z-score.
`TCAGTAATGCTTCTGTAACTGTGCTAG`: “fitted relative affinity” 0.478 z-score.
Under “fitted relative affinity”, `GACGATTTCGGGACTGAAGACGTGCTA` is recorded as 0.949 z-score.
`GACGATTTCAGTCTCGAGTCGTGCTAG`: “fitted relative affinity” 1.34 z-score.

Single results of other studies
With `PhoQ, residues 284 288 289 292 302 303 SCEHLI` the fold induction was 0.137 (PhoP, residues 12 14 15 18 19 NMSSL (Escherichia coli, UniProt P23836); Sort-seq, measured: YFP reporter; E. coli; PhoQ-PhoP variant library, added: 10 µM Mg2+; baseline: high Mg2+ state, higher = stronger signaling).

For quick reference, copied from above (block 1):
`CCUGCUGGGGCUCCUUCCUGGCACUGAGGAGGGGCGCUCCCAAUGCUGUGAGGCAGCGGGGAGGGACCGUGCACCCGUGGCUAUCAGAGCCCCUCCGCUGUCCCACCCUG`: “RBNS enrichment (R)” 0.316.
Under “RBNS enrichment (R)”, `UCCAGCCCAAGAGGGACUCCUGGCUGCCCACAUGGCCUAAGAUGUGGGUCCUGGAUCCUUCCCCCCUUCUCACCAUAACCCCCUCUCAGUGUUUCCCCAACUUCUCCCUU` is recorded as 1.15.
`AAAGAAAUUCUGUUAAUGUUAAUUAAAGUAAAAUUAUUCCCUGAAUUGUUUGAUAUUGUCACCUAGCAGAUAUGUAUUACUUUUCUGCAAUGUUAUUAUUGGCUUGCACU` — result for “RBNS enrichment (R)”: 0.814.
`CUUGCAGGAGAAGCAAUGGAGUCAGUGUGGUGUGGGGAGACCUACUUUUUAACCUGGGCUUAGCCACCUGCUCUGUGAUCCAGGGCUUACCUUCUUUGGGCCUCGGCCUC`: “RBNS enrichment (R)” 0.229.
